Assay results of several laboratories.
Values joined by “and” are separate records of one study, mostly repeats; a detail may differ. ± marks the error that the study gave.

| Structure (SMILES) | tested on | test | test system | conditions | how to read | quantity | result |
| --- | --- | --- | --- | --- | --- | --- | --- |
| O=C(O)/C=C\c1ccc2occc2c1O[C@@H]1O[C@H](CO)[C@@H](O)[C@H](O)[C@H]1O |  | post-procedure stability | rat plasma | 8 ng/mL, 3 h, room temperature |  | accuracy | 100% |
| CC(C)[C@@H]1NC(=O)CNC(=O)[C@H](CC(N)=O)NC(=O)[C@H](CCCNC(=N)N)NC(=O)[C@H](Cc2ccc(O)cc2)NC(=O)[C@H](C(C)C)NC(=O)[C@@H](NC(=O)[C@@H](NC(=O)[C@H](CC(N)=O)NC(=O)[C@H](Cc2c[nH]c3ccccc23)NC(=O)[C@H](C)NC(=O)[C@H](Cc2ccccc2)NC(=O)CNC(=O)[C@H](CCCCN)NC(=O)[C@H](Cc2ccccc2)NC(=O)[C@H](Cc2ccccc2)NC(=O)[C@H](CCCCN)NC(=O)OCC2c3ccccc3-c3ccccc32)C(C)C)CSSC[C@@H](C(=O)N[C@@H](Cc2c[nH]cn2)C(=O)N[C@@H](CCCNC(=N)N)C(=O)N[C@@H](CCCNC(=N)N)C(=O)N[C@@H](C)C(=O)N[C@@H](CC(N)=O)C(N)=O)NC(=O)[C@H](C(C)C)NC(=O)[C@H](CCCNC(=N)N)NC1=O |  |  | ICR mice, blood | intraperitoneal, 5 mg/kg, day 5 |  | platelet distribution width | 16 ± 0.31% |
| CC(C)[C@H](NC(=O)[C@@H](NC(=O)[C@H](CCCNC(=N)N)NC(=O)[C@H](CCCNC(=N)N)NC(=O)[C@H](CCCNC(=N)N)NC(=O)[C@H](CCC(N)=O)NC(=O)[C@H](CCCNC(=N)N)NC(=O)[C@H](CCCNC(=N)N)NC(=O)[C@H](CCCCN)NC(=O)[C@H](CCCCN)NC(=O)[C@H](CCCNC(=N)N)NC(=O)CN)[C@@H](C)O)C(=O)N[C@H](C(=O)N[C@@H](CO)C(=O)N1CCC[C@H]1C(=O)O)[C@@H](C)O |  |  | ICR mice, male, liver | intranasal, 5 mg/kg daily, 4 weeks |  | organ weight | 1.9 ± 0.381 g |
| O=C(O)c1ccc(-c2nc(-c3ccccc3Cl)c3sccn23)cc1 |  |  | C57BL/6 mouse 5-FU stress | dose not given |  | leukocyte recovery | no effect |
| CCCCCCCCCCCC(=O)C(C)C(=O)N1CCC[C@H]1C(=O)NC(C)(C)C(=O)NC(C)(C)C(=O)NC(C)(C)C(=O)N[C@](C)(CC)C(=O)NCCC(=O)N[C@@H](C)C(=O)N[C@](C)(CC)C(=O)N[C@@H](C)C(=O)N[C@@H](CC(C)C)C(=O)N[C@](C)(CC)C(=O)NCCC(=O)N[C@@H](C)C(=O)N[C@](C)(CC)C(=O)NCCC(=O)N[C@@H](C)C(=O)NC(C)(C)C(=O)NC(C)(C)C(=O)NC(C)(C)C(=O)N[C@@H](C)C(=O)N[C@@H](CC(=O)O)C(=O)O (stereo partly drawn) |  | LC-MS | 50% pooled human serum | 40 µM, 30 min, pH 7.5, 37 °C | relative to: 0 h | remaining intact peptide | 61.1% and 62.9% and 56.4% |
| CC(C)=CCC/C(C)=C/CCn1cc(CC(P(=O)(O)O)P(=O)(O)O)nn1 |  |  | CD-1 mouse, lung | intravenous, 0.5 mg/kg, 168 h, single dose |  | concentration | not detected |
| CCn1ccc(-c2cc(C(C)NC(=O)c3cc(N4CC5CC4CN5C)ccc3C)c3ccccc3n2)n1 (stereo not drawn) | Vero E6 |  |  | 15.62 µM |  | viability | 80% and 78.5% and 81% |
| CC[C@H](C)[C@H](NC(=O)[C@H](CCCCN)NC(=O)CNC(=O)[C@H](CC(C)C)NC(=O)[C@H](Cc1ccccc1)NC(=O)[C@H](CCCCN)NC(=O)[C@H](CO)NC(=O)[C@H](Cc1ccccc1)NC(=O)[C@H](Cc1c[nH]c2ccccc12)NC(=O)[C@H](CCC(N)=O)NC(=O)[C@@H](NC(=O)[C@H](Cc1ccccc1)NC(=O)CCCCCNC(=O)CN1CCN(CC(=O)O)CCN(CC(=O)O)CCN(CC(=O)O)CC1)C(C)C)C(=O)N[C@@H](CCC(=O)O)C(=O)N1CCC[C@H]1C(=O)N[C@@H](CC(=O)O)C(=O)N[C@H](C(=O)N[C@@H](CO)C(=O)N[C@@H](CCC(N)=O)C(=O)N[C@H](C(=O)N[C@@H](CCC(N)=O)C(=O)N[C@@H](CC(=O)O)C(=O)N1CCC[C@H]1C(=O)N[C@@H](CC(N)=O)C(=O)N[C@@H](CC(=O)O)C(=O)N[C@@H](CCC(N)=O)C(=O)N[C@@H](Cc1ccc(O)cc1)C(=O)N[C@@H](CCC(=O)O)C(=O)N1CCC[C@H]1C(=O)N[C@@H](Cc1ccccc1)C(=O)O)C(C)C)C(C)C [copper-64 labelled] |  |  | C57BL/6 mice, small intestine | with: LPS 0.1 mg/kg intratracheal |  | tissue uptake | 4.37 ± 0.6 %ID/g |
| O=C1NC2(CC2)COc2ncc(F)cc2[C@H]2COCCN2c2ccn3ncc1c3n2 |  |  | Sprague-Dawley rat, female, serum | oral, 10 mg/kg/day, 4 weeks daily, end of treatment |  | gamma-glutamyltransferase activity | 0.5 ± 0.3 U/L |
| CCN(CCCCOc1ccc(CCC(=O)N2CCC(Cc3ccccc3)CC2)cc1OC)Cc1ccccc1 |  |  | Sprague-Dawley rats, both sexes, urine | oral gavage, 25 mg/kg, 0 to 6 h |  | excreted amount | 2020 ± 352 ng |
| CC(C)C[C@H](NC(=O)[C@H](CCCNC(=N)N)NC(=O)[C@H](Cc1ccccc1)NC(=O)[C@H](Cc1ccccc1)NC(=O)[C@@H](N)[C@@H](C)O)C(=O)N[C@@H](Cc1ccccc1)C(=O)N[C@@H](CC(N)=O)C(=O)N[C@@H](CCCNC(=N)N)C(=O)N[C@@H](C)C(=O)N[C@@H](CCCCN)C(=O)N[C@@H](CCCNC(=N)N)C(=O)N[C@@H](Cc1c[nH]cn1)C(=O)N[C@@H](Cc1c[nH]cn1)C(=O)NCC(=O)N[C@@H](Cc1ccc(O)cc1)C(=O)N[C@@H](CCCCN)C(=O)N[C@@H](CCCNC(=N)N)C(=O)N[C@@H](CCCCN)C(=O)N[C@@H](Cc1ccccc1)C(=O)N[C@@H](Cc1c[nH]cn1)C(=O)O |  | HPLC-UV | human saliva | 1 h, 37 °C, with: initial 1 mg/mL |  | peptide concentration | 0.86 mg/mL |
| CC[C@H](C)[C@@H]1NC(=O)[C@H](Cc2ccc(O)cc2)NC(=O)CCCSC[C@@H](C(=O)N(CC(=O)N[C@@H](CC(C)C)C(=O)NCC(N)=O)Cc2ccc(F)cc2)NC(=O)[C@H](CC(N)=O)NC(=O)[C@H](CCC(N)=O)NC1=O |  |  | human | intranasal, 300 µg single dose |  | deaths | 0% |
| CC(C)(c1cc(Br)c(O)c(Br)c1)c1cc(Br)c(O)c(Br)c1 |  | ultrafiltration | cow milk whey | 200 nM nominal in whole milk |  | dose fraction in permeate | 6.32% |
| CC(C)C[C@H](NC(=O)[C@H](Cc1ccc(O)cc1)NC(=O)[C@H](Cc1c[nH]cn1)NC(=O)[C@H](CC(=O)O)NC(=O)[C@H](CC(C)C)NC(=O)[C@H](C)NC(=O)[C@H](CC(C)C)NC(=O)CNC(=O)CNC(=O)[C@@H](NC(=O)[C@@H](NC(=O)[C@H](CCCCN)NC(=O)CNC(=O)[C@@H](NC(=O)[C@H](CCCCN)NC(=O)[C@H](CCCCN)NC(=O)[C@H](C)NC(=O)[C@H](CCCCN)NC(=O)[C@H](CCCNC(=N)N)NC(=O)[C@H](Cc1ccccc1)NC(=O)[C@@H](NC(=O)[C@H](CO)NC(=O)[C@H](CCCCN)NC(=O)[C@H](Cc1c[nH]c2ccccc12)NC(=O)CN)C(C)C)C(C)C)[C@@H](C)O)C(C)C)C(N)=O |  |  | zebrafish embryos 28 hpf, E3 medium | 1 h |  | acute toxic concentration | 5 µM |
| Cc1ccc(OC[C@@H]2CCCN2C)cc1C(=O)N[C@H](C)c1cc(-c2cnn(C)c2)nc2ccccc12 | African green monkey cells |  |  | 7.812 µM |  | viability | 95.3% |

A few entries again:
| Structure (SMILES) | tested on | test | test system | conditions | how to read | quantity | result |
| --- | --- | --- | --- | --- | --- | --- | --- |
| CC(C)(c1cc(Br)c(O)c(Br)c1)c1cc(Br)c(O)c(Br)c1 |  | ultrafiltration | cow milk whey | 200 nM nominal in whole milk |  | dose fraction in permeate | 6.32% |
| O=C(O)/C=C\c1ccc2occc2c1O[C@@H]1O[C@H](CO)[C@@H](O)[C@H](O)[C@H]1O |  | post-procedure stability | rat plasma | 8 ng/mL, 3 h, room temperature |  | accuracy | 100% |
| CCN(CCCCOc1ccc(CCC(=O)N2CCC(Cc3ccccc3)CC2)cc1OC)Cc1ccccc1 |  |  | Sprague-Dawley rats, both sexes, urine | oral gavage, 25 mg/kg, 0 to 6 h |  | excreted amount | 2020 ± 352 ng |
